Measured values pooled from the literature.
A part holds a random share of what one study measured.
Chain of UniProt P43403 (whole entry, looked up): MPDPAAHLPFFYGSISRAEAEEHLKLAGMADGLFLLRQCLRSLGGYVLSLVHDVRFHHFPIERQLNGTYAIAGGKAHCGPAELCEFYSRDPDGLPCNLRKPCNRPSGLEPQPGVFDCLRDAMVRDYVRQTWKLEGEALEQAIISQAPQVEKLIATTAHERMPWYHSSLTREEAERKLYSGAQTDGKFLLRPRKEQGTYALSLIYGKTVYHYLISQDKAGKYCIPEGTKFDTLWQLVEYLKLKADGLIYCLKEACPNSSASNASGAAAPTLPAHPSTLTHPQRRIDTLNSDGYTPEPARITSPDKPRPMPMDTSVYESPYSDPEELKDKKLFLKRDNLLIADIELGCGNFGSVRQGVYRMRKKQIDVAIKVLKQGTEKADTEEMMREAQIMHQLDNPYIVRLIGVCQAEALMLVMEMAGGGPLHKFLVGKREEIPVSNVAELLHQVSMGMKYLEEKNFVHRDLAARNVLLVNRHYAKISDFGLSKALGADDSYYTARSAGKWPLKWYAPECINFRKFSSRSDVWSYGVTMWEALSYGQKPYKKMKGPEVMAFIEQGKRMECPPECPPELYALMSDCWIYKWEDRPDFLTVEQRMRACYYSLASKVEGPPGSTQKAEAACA
Chain of UniProt P10721 (whole entry, looked up): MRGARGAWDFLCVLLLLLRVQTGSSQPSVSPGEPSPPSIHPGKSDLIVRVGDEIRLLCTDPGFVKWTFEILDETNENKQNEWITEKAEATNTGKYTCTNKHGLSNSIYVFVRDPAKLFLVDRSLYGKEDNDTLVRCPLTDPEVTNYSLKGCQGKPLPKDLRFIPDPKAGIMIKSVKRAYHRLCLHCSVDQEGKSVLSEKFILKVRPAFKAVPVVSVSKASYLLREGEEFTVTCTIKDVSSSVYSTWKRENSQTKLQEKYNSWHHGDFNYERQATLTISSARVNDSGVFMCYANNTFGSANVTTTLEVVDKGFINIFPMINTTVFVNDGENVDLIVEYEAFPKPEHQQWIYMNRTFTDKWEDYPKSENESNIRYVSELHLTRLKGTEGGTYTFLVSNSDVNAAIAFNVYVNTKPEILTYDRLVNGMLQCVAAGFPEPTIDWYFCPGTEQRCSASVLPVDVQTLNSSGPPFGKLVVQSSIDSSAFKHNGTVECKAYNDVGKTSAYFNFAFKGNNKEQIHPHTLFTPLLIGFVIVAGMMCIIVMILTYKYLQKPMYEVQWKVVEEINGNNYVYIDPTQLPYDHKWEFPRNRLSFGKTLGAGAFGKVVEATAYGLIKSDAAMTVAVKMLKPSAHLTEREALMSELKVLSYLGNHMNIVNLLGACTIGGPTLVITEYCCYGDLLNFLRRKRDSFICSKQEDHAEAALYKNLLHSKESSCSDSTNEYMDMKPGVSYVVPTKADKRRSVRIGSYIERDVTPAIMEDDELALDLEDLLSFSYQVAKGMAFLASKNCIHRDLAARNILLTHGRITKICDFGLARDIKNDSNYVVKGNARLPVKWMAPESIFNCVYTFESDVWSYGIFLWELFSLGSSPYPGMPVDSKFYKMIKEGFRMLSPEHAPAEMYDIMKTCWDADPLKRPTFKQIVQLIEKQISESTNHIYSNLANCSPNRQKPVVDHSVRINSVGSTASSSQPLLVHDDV
Chain of UniProt P11802 (whole entry, looked up): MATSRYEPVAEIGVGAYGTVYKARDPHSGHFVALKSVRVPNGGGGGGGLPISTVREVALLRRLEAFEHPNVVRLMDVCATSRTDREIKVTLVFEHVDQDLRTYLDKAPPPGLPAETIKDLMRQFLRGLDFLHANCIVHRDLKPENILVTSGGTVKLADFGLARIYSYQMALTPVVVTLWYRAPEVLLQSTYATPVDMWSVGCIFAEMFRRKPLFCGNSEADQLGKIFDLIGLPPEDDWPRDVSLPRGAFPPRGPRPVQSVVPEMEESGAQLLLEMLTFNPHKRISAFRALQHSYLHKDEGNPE
Chain of UniProt Q5S007 (whole entry, looked up): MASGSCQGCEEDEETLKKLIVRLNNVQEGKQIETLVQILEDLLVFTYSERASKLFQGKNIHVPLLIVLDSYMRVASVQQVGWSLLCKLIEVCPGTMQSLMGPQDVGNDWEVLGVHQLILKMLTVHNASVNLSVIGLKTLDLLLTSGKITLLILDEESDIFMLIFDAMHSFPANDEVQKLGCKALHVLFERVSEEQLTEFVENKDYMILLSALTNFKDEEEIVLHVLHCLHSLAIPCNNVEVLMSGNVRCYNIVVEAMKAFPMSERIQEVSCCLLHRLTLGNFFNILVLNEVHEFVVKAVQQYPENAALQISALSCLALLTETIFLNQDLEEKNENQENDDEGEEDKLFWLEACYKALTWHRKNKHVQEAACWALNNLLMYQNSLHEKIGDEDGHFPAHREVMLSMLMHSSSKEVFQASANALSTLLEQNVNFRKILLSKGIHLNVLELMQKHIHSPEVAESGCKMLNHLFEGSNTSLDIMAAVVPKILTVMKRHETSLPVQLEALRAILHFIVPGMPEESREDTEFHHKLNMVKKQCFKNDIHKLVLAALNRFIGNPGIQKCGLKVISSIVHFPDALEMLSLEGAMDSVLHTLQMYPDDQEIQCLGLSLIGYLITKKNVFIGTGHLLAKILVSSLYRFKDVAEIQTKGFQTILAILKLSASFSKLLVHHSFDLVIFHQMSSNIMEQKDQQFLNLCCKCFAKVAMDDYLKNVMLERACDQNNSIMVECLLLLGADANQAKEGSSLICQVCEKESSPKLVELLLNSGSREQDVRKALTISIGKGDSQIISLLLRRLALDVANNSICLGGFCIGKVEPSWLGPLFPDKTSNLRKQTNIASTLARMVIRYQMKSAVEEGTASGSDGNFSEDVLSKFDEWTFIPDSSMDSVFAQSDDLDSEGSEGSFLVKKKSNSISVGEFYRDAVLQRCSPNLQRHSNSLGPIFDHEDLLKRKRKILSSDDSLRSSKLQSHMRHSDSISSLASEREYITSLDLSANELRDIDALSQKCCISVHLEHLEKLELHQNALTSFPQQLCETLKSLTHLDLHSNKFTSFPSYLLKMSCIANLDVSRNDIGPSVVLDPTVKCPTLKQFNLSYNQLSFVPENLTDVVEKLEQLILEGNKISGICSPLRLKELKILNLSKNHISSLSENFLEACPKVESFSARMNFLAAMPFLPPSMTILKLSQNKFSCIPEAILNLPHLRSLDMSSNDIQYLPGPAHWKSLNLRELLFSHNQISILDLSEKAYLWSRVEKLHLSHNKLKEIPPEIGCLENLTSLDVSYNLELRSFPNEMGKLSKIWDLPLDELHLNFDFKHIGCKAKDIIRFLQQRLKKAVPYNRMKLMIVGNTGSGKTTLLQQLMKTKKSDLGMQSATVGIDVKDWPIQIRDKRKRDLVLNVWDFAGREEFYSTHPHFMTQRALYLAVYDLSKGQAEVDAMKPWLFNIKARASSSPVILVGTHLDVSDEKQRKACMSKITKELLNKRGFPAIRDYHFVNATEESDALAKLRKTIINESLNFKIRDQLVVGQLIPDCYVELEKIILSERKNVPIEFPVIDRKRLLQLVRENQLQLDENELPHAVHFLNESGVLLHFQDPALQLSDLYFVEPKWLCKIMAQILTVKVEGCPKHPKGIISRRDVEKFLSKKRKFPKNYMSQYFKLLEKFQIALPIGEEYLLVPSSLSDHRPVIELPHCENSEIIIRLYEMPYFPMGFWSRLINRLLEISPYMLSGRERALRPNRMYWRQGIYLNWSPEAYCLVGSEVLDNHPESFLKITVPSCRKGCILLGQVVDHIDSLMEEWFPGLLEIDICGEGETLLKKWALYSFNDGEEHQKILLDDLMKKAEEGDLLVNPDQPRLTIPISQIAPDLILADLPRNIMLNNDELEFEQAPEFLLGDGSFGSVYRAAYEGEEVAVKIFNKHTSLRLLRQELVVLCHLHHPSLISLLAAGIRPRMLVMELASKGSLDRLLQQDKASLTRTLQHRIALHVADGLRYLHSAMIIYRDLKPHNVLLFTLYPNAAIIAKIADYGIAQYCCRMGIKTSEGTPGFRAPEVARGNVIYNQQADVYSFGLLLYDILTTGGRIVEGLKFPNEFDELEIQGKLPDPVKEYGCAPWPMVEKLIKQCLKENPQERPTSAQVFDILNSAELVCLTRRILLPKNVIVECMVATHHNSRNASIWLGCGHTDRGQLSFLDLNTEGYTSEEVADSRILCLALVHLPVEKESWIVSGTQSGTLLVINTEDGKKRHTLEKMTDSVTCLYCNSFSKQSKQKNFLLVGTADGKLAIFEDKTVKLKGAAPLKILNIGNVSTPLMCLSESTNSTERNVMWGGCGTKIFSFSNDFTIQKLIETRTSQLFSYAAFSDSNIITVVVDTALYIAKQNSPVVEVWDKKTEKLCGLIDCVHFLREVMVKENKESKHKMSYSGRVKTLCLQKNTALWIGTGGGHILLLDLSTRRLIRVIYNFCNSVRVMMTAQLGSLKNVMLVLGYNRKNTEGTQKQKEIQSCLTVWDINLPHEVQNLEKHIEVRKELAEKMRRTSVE
Chain of UniProt P07948 (whole entry, looked up): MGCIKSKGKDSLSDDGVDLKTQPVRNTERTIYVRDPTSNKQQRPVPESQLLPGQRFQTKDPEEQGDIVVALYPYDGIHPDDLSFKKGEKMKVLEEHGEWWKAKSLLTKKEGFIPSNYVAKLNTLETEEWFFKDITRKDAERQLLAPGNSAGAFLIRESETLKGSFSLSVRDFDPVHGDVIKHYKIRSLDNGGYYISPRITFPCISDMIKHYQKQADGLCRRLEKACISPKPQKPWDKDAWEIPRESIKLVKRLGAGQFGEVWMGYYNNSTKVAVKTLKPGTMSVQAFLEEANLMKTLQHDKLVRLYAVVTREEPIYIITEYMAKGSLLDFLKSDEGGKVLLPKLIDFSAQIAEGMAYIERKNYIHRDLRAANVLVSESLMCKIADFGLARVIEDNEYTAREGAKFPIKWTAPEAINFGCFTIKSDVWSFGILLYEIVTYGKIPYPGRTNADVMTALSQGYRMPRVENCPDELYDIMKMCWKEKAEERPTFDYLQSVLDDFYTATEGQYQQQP

Sample 1
SMILES: Cc1c(NC(=O)c2cc(C(N)=O)nc3cc(F)ccc23)c(C(F)(F)F)nn1Cc1ccc(C#N)cc1
Read-out: cell-free assay
Method: competition with immobilised ligand
Concentration: 1 µM
Measurement: remaining binding
ULK2 (Homo sapiens, UniProt Q8IYT8): 81%
ZAP70 (Homo sapiens, UniProt P43403): 84%
LRRK2 (Homo sapiens, UniProt Q5S007): 83%
PLK4 (Homo sapiens, UniProt O00444): 100%
PRKAA1 (Homo sapiens, UniProt Q13131): 86%
CAMK1G (Homo sapiens, UniProt Q96NX5): 75%
RIOK1 (Homo sapiens, UniProt Q9BRS2): 93%
PRKCI (Homo sapiens, UniProt P41743): 84%
GRK1 (Homo sapiens, UniProt Q15835): 87%
EIF2AK1 (Homo sapiens, UniProt Q9BQI3): 100%
ULK1 (Homo sapiens, UniProt O75385): 81%
NTRK3 (Homo sapiens, UniProt Q16288): 69%
PRKCE (Homo sapiens, UniProt Q02156): 74%
FRK (Homo sapiens, UniProt P42685): 100%
COQ8A (Homo sapiens, UniProt Q8NI60): 82%
NUAK1 (Homo sapiens, UniProt O60285): 100%
Mast/stem cell growth factor receptor Kit, autoinhibited (KIT, Homo sapiens, UniProt P10721): 72%
FLT3 (Homo sapiens, UniProt P36888, F691L/ITD): 68%

Sample 2
Organism: Sarcocystis neurona
Read-out: parasite growth
Concentration: 10 µM
Time: 96 h
Notes: secondary screen
Measurement: inhibition
CC(=O)OCC(=O)[C@@]12OC3(CCCC3)O[C@@H]1C[C@H]1[C@@H]3CCC4=CC(=O)C=C[C@]4(C)[C@@]3(F)[C@@H](O)C[C@@]12C: -15.1%
CC(C(O)c1ccc(O)cc1)N1CCC(Cc2ccccc2)CC1 (stereo not drawn): -19.4%
Cc1ccc(NC(=O)c2ccc(CN3CCN(C)CC3)cc2)cc1Nc1nccc(-c2cccnc2)n1: -48.1%
CC1(C)O[C@@H]2[C@@H](CO[C@@]3(COS(N)(=O)=O)OC(C)(C)O[C@@H]23)O1: -22.2%
CC(=O)OCC(=O)[C@@]1(O)CC[C@H]2[C@@H]3CCC4=CC(=O)C=C[C@]4(C)[C@H]3[C@@H](O)C[C@@]21C: 4.7%
Oc1ncnc2[nH]ncc12: -25%
CCN1CCCC1CNC(=O)c1cc(S(=O)(=O)CC)c(N)cc1OC (stereo not drawn): -11.1%
NC(=O)c1cccnc1: -28.2%
CCOC(=O)C1=C(COCCN)NC(C)=C(C(=O)OC)C1c1ccccc1Cl (stereo not drawn): -5.3%

Sample 3
SMILES: O=Nc1c(-c2c(O)[nH]c3ccccc23)[nH]c2ccccc12
Read-out: enzyme activity
Mode: inhibitor
Concentration: 0.5 µM
Relative to: control
Measurement: remaining activity
cGMP-dependent protein kinase 1, isoform beta (PRKG1, Homo sapiens, UniProt Q13976): 90.1%
STK11 (Homo sapiens, UniProt Q15831): 25.6%
IKBKB (Homo sapiens, UniProt O14920): 96.1%
PRKCA (Homo sapiens, UniProt P17252): 97.7%
DAPK2 (Homo sapiens, UniProt Q9UIK4): 110%
OXSR1 (Homo sapiens, UniProt O95747): 91.7%
Tyrosine-protein kinase Lyn, isoform B (LYN, Homo sapiens, UniProt P07948): 79.6%
GRK3 (Homo sapiens, UniProt P35626): 108%
STK10 (Homo sapiens, UniProt O94804): 74%
DAPK1 (Homo sapiens, UniProt P53355): 83.2%
TGFBR2 (Homo sapiens, UniProt P37173): 113%
MAPK9 (Homo sapiens, UniProt P45984): 65.6%
CAMK2D (Homo sapiens, UniProt Q13557): 60.4%
TGFBR1 (Homo sapiens, UniProt P36897): 98.9%
IKBKE (Homo sapiens, UniProt Q14164): 75.1%
CHEK2 (Homo sapiens, UniProt O96017): 32.3%
Protein kinase C beta type, isoform beta-I (PRKCB, Homo sapiens, UniProt P05771): 94.7%
STK39 (Homo sapiens, UniProt Q9UEW8): 90.4%
Cyclin-dependent kinase 5, with p25 (CDK5, Homo sapiens, UniProt Q00535): 28.7%
CAMKK2 (Homo sapiens, UniProt Q96RR4): 66.8%
PRKACA (Homo sapiens, UniProt P17612): 107%
MAP3K3 (Homo sapiens, UniProt Q99759): 94.4%
Cyclin-dependent kinase 4, with cyclin D1 (CDK4, Homo sapiens, UniProt P11802): 70.9%

Mixed results
COc1ccc2[nH]c3c4[nH]c5ccc(OC)cc5c4c4c(c3c2c1)C(=O)NC4=O — receptor occupancy (Proto-oncogene tyrosine-protein kinase Src (SRC, Homo sapiens, UniProt P12931); 1 µM): -49.8%

Repeated from above (sample 3):
MAP3K3 (Homo sapiens, UniProt Q99759): 94.4%
CHEK2 (Homo sapiens, UniProt O96017): 32.3%
Tyrosine-protein kinase Lyn, isoform B (LYN, Homo sapiens, UniProt P07948): 79.6%
STK39 (Homo sapiens, UniProt Q9UEW8): 90.4%
PRKCA (Homo sapiens, UniProt P17252): 97.7%
